Results collected from several papers.
Compare with care: the assays were run in different laboratories. Several values in a cell are separate wells, animals, samples, runs or records. ± marks the error that the study gave.

Compound | test | test system | setting | scale | quantity | result
C/C(N)=N/C(=N\S(=O)(=O)c1ccc(C(F)(F)F)cc1)N1C[C@H](c2ccccc2)C(c2ccc(Cl)cc2)=N1 | – | mouse | – | reference: in vivo over in vitro CLint | empirical scaling factor | 33
CC[C@H](C)[C@H](NC(=O)[C@H](CC(=O)O)NC(C)=O)C(=O)N[C@H](C(=O)N[C@H](C(=O)N[C@@H](CCCNC(=N)N)C(=O)N[C@@H](Cc1ccc(O)cc1)C(=O)N[C@@H](CC(N)=O)C(=O)NCC(=O)N[C@@H](CCCCN)C(=O)N[C@H](C(=O)N[C@@H](Cc1c[nH]c2ccccc12)C(=O)N[C@@H](Cc1c[nH]c2ccccc12)C(=O)N[C@@H](CCCNC(=N)N)C(=O)O)C(C)C)[C@@H](C)O)[C@@H](C)O | circular dichroism | free peptide in solution | concentration not given, 25 °C, no insulin present | – | β-strand content | 50.1%
COc1cnc2cccc(N3CCc4c(cc(Cn5ccnc5)cc4-c4cn(C)nc4C(F)(F)F)C3=O)c2c1 | – | male CD-1 mouse, plasma | intravenous, 3 mg/kg | – | half-life | 60 min
CC1(C)C(=CC=C2CCCC(C=CC3=[N+](CCC[N+](C)(C)C)c4ccc(S(=O)(=O)O)cc4C3(C)C)=C2SCCOCCOCCC(=O)O)N(CCC[N+](C)(C)C)c2ccc(S(=O)(=O)O)cc21 | – | DMSO, PBS and FBS | across solvents tested | – | emission maximum wavelength | 807 to 834 nm
CCCCN1C(=O)c2cccc3c(NCCN4CCOCC4)ccc(c23)C1=O | – | chloroform | – | – | emission maximum | 496 nm
OC1(C(F)(F)F)CCN(c2nc(Nc3ccnc(C(F)(F)F)c3)nc(-c3cccc(C(F)(F)F)n3)n2)C1 (centres unmarked) | – | monkey, both sexes, plasma | oral, 1 mg/kg, day 14 | – | AUC(0-inf) | 37400 ± 17500 ng·h/mL
CCCCN1C(=O)c2cccc3c(NCCCCCN4CCOCC4)ccc(c23)C1=O | – | dichloromethane | – | – | emission maximum | 508 nm
Cc1c(C(N)=O)cc(Cl)c2c1O[C@@](C)([C@H]1CC[C@H](N(C)C)CC1)O2 | – | healthy men, urine and feces | oral, 200 mg [14C]-valemetostat | reference: dose | excretion | 0.64%
CN[C@H](CC(C)C)C(=O)N[C@H]1C(=O)N[C@@H](CC(N)=O)C(=O)N[C@H]2C(=N)N[C@H]3C(=O)N[C@H](C(=O)N[C@H](C(=O)NCCC[N+](C)(C)C)c4cc(O)cc(O)c4-c4cc3ccc4O)[C@H](O)c3ccc(c(Cl)c3)Oc3cc2cc(c3O[C@@H]2O[C@H](CO)[C@@H](O)[C@H](O)[C@H]2O[C@H]2C[C@](C)(NCc3ccc(-c4ccc(Cl)cc4)cc3)[C@H](O)[C@H](C)O2)Oc2ccc(cc2Cl)[C@H]1O | – | mouse | intravenous, 10 mg/kg | – | volume of distribution | 0.14 L/kg
CCCCN1C(=O)c2cccc3c(NCCCCN4CCOCC4)ccc(c23)C1=O | – | acetonitrile | – | – | emission maximum | 520 nm
Cc1cnc2nc1Nc1cccc(c1)COC/C=C/COCc1cc(ccc1OCCN1CCOCC1)N2 | – | BALB/c mice, rhEPO-induced polycythemia | 75 mg/kg, day 3 | – | body weight | 18.4 g and 18.9 g and 20.8 g and 19.4 g and 18.6 g and 17.3 g
CN1CCC[C@]1(C)/C=C/S(=O)(=O)NC(=O)Nc1c2c(cc3c1CCC3)CCC2 | measured: glucose in urine, not related | human | oral, 50 mg twice daily, 14 days, multiple ascending dose | – | subjects with adverse event | 16.7%
CCCCN1C(=O)c2cccc3c(NCCCN4CCOCC4)ccc(c23)C1=O | – | dioxane | – | – | emission maximum | 505 nm
COc1ccc(Nc2nc(Nc3ccc(OCCOCCOCC[18F])cc3)ncc2Br)cc1 | – | ICR mice, S180 tumour-bearing, brain | intravenous, 370 kBq, 120 min | – | tissue uptake | 2.57 ± 0.07 %ID/g
O=C(Nc1cnccc1-c1ccc([18F])cc1)c1ccnc(NC(=O)C2CC2)c1 | – | FVB/NJ mouse, both sexes, brain | intravenous, 25 min, together with: tariquidar 15 mg/kg iv | – | SUV | 0.41
C=C(NC(=O)c1csc(-c2nc3c(cc2O)-c2nc(cs2)C(=O)NC(C(C)O)C(=O)NC(=C(C)OC)c2nc(cs2)C(=O)NC2c4nc(cs4)C(=O)NC(COC(=O)c4c5c6c(cccc6n4O)COC(=O)C(OC4CC(C)(O)C(N(C)C)C(C)O4)C2OC5)c2nc-3cs2)n1)C(N)=O (centres unmarked) | – | cynomolgus monkey, both sexes, plasma | intravenous infusion, 1.5 mg/kg twice daily, 0 to 6 h after first dose | – | AUC(0-tau) | 14700 ± 2780 ng·h/mL
COc1cc(-c2nc3ccccc3s2)cc(CN2CCN(Cc3cc(-c4nc5ccccc5s4)cc(OC)c3O)CCN(C(C)C)CC2)c1O | UV-vis spectrophotometric titration | aqueous NaCl 0.1 M | 20 µM, 25 °C, pH 3 to 11 | – | pKa2 | 7.06
CC[C@H](C)[C@@H]1NC(=O)[C@H](Cc2ccc(O)cc2)NC(=O)CCCSC[C@@H](C(=O)N(CC(=O)N[C@@H](CC(C)C)C(=O)NCC(N)=O)Cc2ccc(F)cc2)NC(=O)[C@H](CC(N)=O)NC(=O)[C@H](CCC(N)=O)NC1=O | – | human | intranasal, 400 µg single dose | – | adverse drug reactions | 50%
CCCCCCC(CSS(=O)(=O)O)NCC(C)C (centres unmarked) | – | Swiss Webster mice, Schistosoma mansoni infected | 100 mg/kg | reference: vehicle control | body weight decrease | 9%
O=C(Nc1cnccc1-c1ccc([18F])nc1)c1ccnc(NC(=O)C2CC2)c1 | ex vivo gamma counting | GSK-3β transgenic mice, early-stage, brain stem | intravenous, 120 min, together with: tariquidar 15 mg/kg iv | – | mean SUV | 0.063
C=CC(=O)Nc1cc(Nc2nccc(-c3c[nH]c4ccccc34)n2)c(OC)cc1N(C)CCN(C)C | storage stability | human dried blood spots | 24 h, on ice, high QC level | – | recovery | 76.6%

Compound | test | test system | setting | scale | quantity | result
CC(C)(O)c1ncc([S@](N)(=O)=NC(=O)Nc2c3c(cc4c2CCC4)CCC3)s1 | measured: skin, subcutaneous tissue disorders | healthy human | oral, 600 mg, SDD formulation | – | subjects with TEAEs | 17%
CN(O)C(=O)CCC(=O)NCCCN(CCCCN(CCCNC(=O)CCC(=O)N(C)O)C(=O)CCC(=O)N(C)O)C(=O)CCC(=O)N(C)O.[89Zr] | – | mouse, spleen | 1 h | – | tracer uptake | 0.24 %ID/g
COc1ccnc(C(=O)N[C@H]2COC(=O)[C@H](Cc3ccccc3)[C@@H](OC(=O)C(C)C)[C@H](C)OC2=O)c1O | soil adsorption | soil | pH 6.9, organic carbon 0.8 % | – | Freundlich coefficient KF | 220 mL/g
CCCCN1C(=O)c2cccc3c(NCCCCCCN4CCOCC4)ccc(c23)C1=O | – | dichloromethane | – | – | emission maximum | 517 nm
O=C([O-])CN1CCN(CC(=O)[O-])CCN(CC(CCCc2ccccc2[N+](=O)[O-])N(CC(=O)[O-])CC(=O)[O-])CC1.[177Lu+3] (centres unmarked) | HPLC | human serum | 327 h, pH 7, 37 °C | – | intact radiolabelled complex | 100%
CC(C(=O)O)n1nc(Cn2cc3cc(OCC[18F])c(Cl)cc3n2)c2ccccc2c1=O (racemic) | – | rat, spleen | 2 h | – | tracer uptake | 0.04 %ID/g
CCCCN1C(=O)c2cccc3c(NCCCCCCCCN4CCOCC4)ccc(c23)C1=O | – | water | pH 6.0 | – | emission maximum | 559 nm
C=C[C@]1(C)C[C@@H](OC(=O)CSc2ccc(NC(=O)c3ccco3)cc2)[C@]2(C)[C@H](C)CC[C@]3(CCC(=O)[C@H]32)[C@@H](C)[C@@H]1O | – | M. gallisepticum-infected chickens, plasma | intramuscular, 40 mg/kg single dose | – | apparent volume of distribution | 6.97 L/kg
COc1cccc2c(N3CCC(CCP(=O)(O)O)CC3)ncnc12 | – | female C57BL/6 mouse, brain | subcutaneous, 50 mg/kg | – | half-life | 138 min
CN(C)C(=O)c1cccc(N2Cc3cn(Cc4ccc(F)c(F)c4)nc3C2)c1 | metabolic stability | rat, liver microsomes | – | – | half-life | 48 min
COCC1CN(C2CCN(c3cc(OC)c(Nc4ncc(Br)c(Nc5ccc6c(c5P(C)(C)=O)OCCO6)n4)cc3C)CC2)C1 | – | EGFR-mutant NSCLC patients | oral, 240 mg once daily | – | patients with adverse events | 100%
CN(C)C(=O)c1cccc(N2Cc3cn(Cc4cccc(F)c4)nc3C2)c1 | metabolic stability | rat, liver microsomes | – | – | half-life | 48 min
COc1cccc(OC)c1-c1cc(C(=O)NC2(C(=O)O)C3CC4CC(C3)CC2C4)nn1-c1ccc(C(=O)N(C)CCCN(C)CCCN(C)C(=O)[C@H](CCCCNC(=O)[C@H](CC(C)C)NC(=O)C2OC2C(=O)O)NC(=O)CN2CCN(CC(=O)[O-])CCN(CC(=O)[O-])CCN(CC(=O)[O-])CC2)cc1C(C)C.[177Lu+3] (mixture of isomers) | – | mouse HT-29 xenograft | 168 h, biodistribution | reference: tumour over spleen | tumour-to-spleen ratio | 6.87
c1ccc(CN2Cc3cccc(n3)CN(Cc3ccccn3)Cc3cccc(n3)C2)nc1 | voltammetry, Nernst equation | – | Mn(III) complex | – | stability constant log β | 6.31
O=C1C2CC3CC1CC(C(=O)N1CCN(c4ccc([N+](=O)[O-])c5ncccc45)CC1)(C3)C2 | – | male ICR mouse, plasma | intravenous, 1 mg/kg | – | MRT | 6 min
CC(=O)N[C@H](CC(=O)O)C(=O)N[C@H](Cc1c[nH]c2ccccc12)C(=O)N[C@H](Cc1ccccc1)C(=O)N[C@H](CCCCN)C(=O)N[C@H](C)C(=O)N[C@H](Cc1ccccc1)C(=O)N[C@H](Cc1ccc(O)cc1)C(=O)N[C@H](CC(=O)O)C(=O)N[C@H](CCCCN)C(=O)N[C@@H](C(=O)N[C@H](C)C(=O)N[C@H](CCC(=O)O)C(=O)N[C@H](CCCCN)C(=O)N[C@H](Cc1ccccc1)C(=O)N[C@H](CCCCN)C(=O)N[C@H](CCC(=O)O)C(=O)N[C@H](C)C(=O)N[C@H](Cc1ccccc1)C(N)=O)C(C)C | – | high-risk statin-treated men with CHD, plasma | oral, dose not given, median, doses pooled | – | AUC(0-t) | 17.9 ng·h/mL
COc1cccc(OC)c1-c1cc(C(=O)NC2(C(=O)O)C3CC4CC(C3)CC2C4)nn1-c1ccc(C(=O)N(C)CCOCCOCCN(C)C(=O)[C@H](CCCCNC(=O)[C@H](CC(C)C)NC(=O)C2OC2C(=O)O)NC(=O)CN2CCN(CC(=O)[O-])CCN(CC(=O)[O-])CCN(CC(=O)[O-])CC2)cc1C(C)C.[177Lu+3] (mixture of isomers) | – | mouse HT-29 xenograft | 168 h, biodistribution | reference: tumour over pancreas | tumour-to-pancreas ratio | 5.65
O=C(NS(=O)(=O)c1cccs1)c1cc2ccccc2n1Cc1ccc(Br)c2ccccc12 | – | Sprague-Dawley rat, male | oral, 2 mg/kg, 6 h | – | plasma concentration | 110 ng/mL and 127 ng/mL
CS(=O)(=O)c1cc(Cl)cc(-c2cc(Cl)c(Cl)cc2Cl)c1Cl | – | whole cow milk | 500 nM nominal | – | dose fraction in milk fat | 86.5%
COc1cccc(OC)c1-c1cc(C(=O)NC2(C(=O)O)C3CC4CC(C3)CC2C4)nn1-c1ccc(C(=O)N(C)CCCN(C)C(=O)[C@H](CCCCNC(=O)[C@H](CC(C)C)NC(=O)C2OC2C(=O)O)NC(=O)CN2CCN(CC(=O)[O-])CCN(CC(=O)[O-])CCN(CC(=O)[O-])CC2)cc1C(C)C.[177Lu+3] (mixture of isomers) | – | mouse HT-29 xenograft | 72 h, biodistribution | reference: tumour over spleen | tumour-to-spleen ratio | 7.25

Excerpt of the above:
Compound | test | test system | setting | scale | quantity | result
O=C(Nc1cnccc1-c1ccc([18F])cc1)c1ccnc(NC(=O)C2CC2)c1 | – | FVB/NJ mouse, both sexes, brain | intravenous, 25 min, together with: tariquidar 15 mg/kg iv | – | SUV | 0.41
C=C(NC(=O)c1csc(-c2nc3c(cc2O)-c2nc(cs2)C(=O)NC(C(C)O)C(=O)NC(=C(C)OC)c2nc(cs2)C(=O)NC2c4nc(cs4)C(=O)NC(COC(=O)c4c5c6c(cccc6n4O)COC(=O)C(OC4CC(C)(O)C(N(C)C)C(C)O4)C2OC5)c2nc-3cs2)n1)C(N)=O (centres unmarked) | – | cynomolgus monkey, both sexes, plasma | intravenous infusion, 1.5 mg/kg twice daily, 0 to 6 h after first dose | – | AUC(0-tau) | 14700 ± 2780 ng·h/mL
COc1cc(-c2nc3ccccc3s2)cc(CN2CCN(Cc3cc(-c4nc5ccccc5s4)cc(OC)c3O)CCN(C(C)C)CC2)c1O | UV-vis spectrophotometric titration | aqueous NaCl 0.1 M | 20 µM, 25 °C, pH 3 to 11 | – | pKa2 | 7.06
CC[C@H](C)[C@@H]1NC(=O)[C@H](Cc2ccc(O)cc2)NC(=O)CCCSC[C@@H](C(=O)N(CC(=O)N[C@@H](CC(C)C)C(=O)NCC(N)=O)Cc2ccc(F)cc2)NC(=O)[C@H](CC(N)=O)NC(=O)[C@H](CCC(N)=O)NC1=O | – | human | intranasal, 400 µg single dose | – | adverse drug reactions | 50%
CCCCCCC(CSS(=O)(=O)O)NCC(C)C (centres unmarked) | – | Swiss Webster mice, Schistosoma mansoni infected | 100 mg/kg | reference: vehicle control | body weight decrease | 9%
O=C(Nc1cnccc1-c1ccc([18F])nc1)c1ccnc(NC(=O)C2CC2)c1 | ex vivo gamma counting | GSK-3β transgenic mice, early-stage, brain stem | intravenous, 120 min, together with: tariquidar 15 mg/kg iv | – | mean SUV | 0.063
